Assay results gathered from unrelated publications.
Lines come from different studies, so protocols differ. ± gives the spread as reported.

Structure (SMILES) | assay | test system | conditions | how to read | quantity | result
CC(C)(CO)c1cc2cc(NC(=O)C3(c4ccc5c(c4)OC(F)(F)O5)CC3)c(F)cc2n1C[C@@H](O)CO |  | FaSSIF | literature solubility over dose |  | dose-adjusted solubility | 0.00238 mL⁻¹
CNc1ccc(-c2nc3ccc(O)cc3s2)cc1 [carbon-11 labelled] | ex vivo biodistribution | B6SJL mouse, normal, blood | intravenous, 30 min |  | SUV | 0.532 ± 0.294
O=C(Nc1nc2cccc(-c3ccc(CN4CCS(=O)(=O)CC4)cc3)n2n1)C1CC1 | item: gastrointestinal disorders | human rheumatoid arthritis patients | oral, 150 mg once daily, 4 weeks, regardless of relatedness |  | treatment-emergent adverse events | 13.3%
CC(C)c1nc(CN(C)C(=O)N[C@@H](CCN2CCOCC2)C(=O)N[C@H](CC[C@H](Cc2ccccc2)NC(=O)OCc2cncs2)Cc2ccccc2)cs1 |  | human | oral, 150 mg, drug interaction trial |  | serious TEAE | 0%
CC(C)n1c(Nc2cccnc2)nc2cnc(Nc3ccc(N4CCN(C)CC4)cc3)nc21 | item: gum pain | healthy human, male | oral, dose not given, CTCAE grade 1-3 |  | subjects with TEAE | 2.4%
C=CC(=O)Nc1cc(Nc2nccc(-c3cn(C)c4ccccc34)n2)c(OC)cc1N(C)CCN(C)C | storage stability | human dried blood spot | 30 d, on ice, LQC level |  | recovery | 56.7%
O=C(Nc1ccc(OC(F)(F)Cl)cc1)c1cnc(N2CC[C@@H](O)C2)c(-c2ccn[nH]2)c1 | per laboratory record, item: absolute neutrophil decrease | human patients | oral, dose not given |  | grade ≥3 event rate | 4.3%
Cc1cc(-c2nnc(N)nc2-c2ccc(F)cc2)cc(Cl)n1 |  | human patients, plasma | oral, 200 mg capsule once daily, multiple doses, arithmetic mean |  | terminal half-life | 12 h
C[C@@H]1COCCN1c1cc(C2([S@](C)(=N)=O)CC2)nc(-c2cc[nH]c3nccc2-3)n1 |  | Japanese advanced solid tumour patients | oral, 160 mg twice daily, any grade |  | Pyelonephritis incidence | 0%
CCO[C@H]1CCN(Cc2c(OC)cc(C)c3[nH]ccc23)[C@H](c2ccc(C(=O)O)cc2)C1 |  | PNH patients, active haemolysis | oral, 25 mg, 4 weeks, treatment |  | incidence impaired fasting glucose | 0%
O=C1CCC(N2Cc3cc(CO)c(F)cc3C2=O)C(=O)N1 (stereo not drawn) |  | male cynomolgus monkey, plasma | oral, 0.3 mg/kg of parent drug |  | half-life | 1.4 ± 0.1 h
CCc1cc(C(=O)NC)c2nccc(N3CCc4c(cc(Cn5ccnc5)cc4-c4cn(C)nc4C(F)(F)F)C3=O)c2c1 |  | Sprague Dawley rats | oral, 100 mg/kg twice daily, 7 days | reference: vehicle | blood CREA change | -6.5%
O=C(c1cccnc1-c1ccncc1)N1CCC(O)(Cc2ccccc2)CC1 |  | healthy Japanese adults, plasma | oral, 100 mg twice daily, day 1 |  | Vz/F | 4100 L
O=C1CCc2ccc(OCCCCN3CCN(c4cccc(Cl)c4Cl)CC3)cc2N1 | item: Constipation | patients, CYP2D6 intermediate metabolizers | dose not given, long-acting oral or depot |  | adverse event incidence | 10%
CCN1/C(=C/C(C)=O)Sc2ccc(F)cc21 |  | cynomolgus monkey | oral, 100 mg/kg, 1 h post-dose | reference: pre-dose | diastolic blood pressure change | 97.1 ± 3.1%

Excerpt of the above:
Structure (SMILES) | assay | test system | conditions | how to read | quantity | result
O=C(c1cccnc1-c1ccncc1)N1CCC(O)(Cc2ccccc2)CC1 |  | healthy Japanese adults, plasma | oral, 100 mg twice daily, day 1 |  | Vz/F | 4100 L
CC(C)c1nc(CN(C)C(=O)N[C@@H](CCN2CCOCC2)C(=O)N[C@H](CC[C@H](Cc2ccccc2)NC(=O)OCc2cncs2)Cc2ccccc2)cs1 |  | human | oral, 150 mg, drug interaction trial |  | serious TEAE | 0%
